Results from different studies.
Each line is one published result; not all experiments were run side by side. Values joined by “and” are separate records of one study, mostly repeats; a detail may differ. ± gives the spread as reported. ≈ marks a conversion by molar mass, not a printed value.

SMILES | target or system | assay | test system | setting | how to read | endpoint | result
CC(C)[C@H]1NC(=O)[C@H](Cc2ccccc2)NC(=O)[C@@H](C(C)C)NC(=O)[C@@H](C)NC(=O)[C@H](CO)NC(=O)[C@@H](Cc2c(-c3ccc(-c4ccccc4)c(F)c3)[nH]c3ccccc23)NC(=O)[C@@H](CO)NC1=O | Mycobacterium marinum | – | – | – | – | MIC90 | 42.2 µM (≈ 40 µg/mL)
CC(C)C[C@H](NC(=O)[C@H](CCN)NC(=O)[C@H](CCN)NC(=O)[C@@H](Cc1ccccc1)NC(=O)[C@H](CC(C)C)NC(=O)[C@H](CCN)NC(=O)[C@H](CCN)NC(=O)[C@@H](CCN)NC(=O)CCSCCOC(=O)c1ccccc1)C(N)=O | Acinetobacter calcoaceticus | BHI agar spot plating | – | 24 h, 37 °C | – | MBC | 64 µM
COC(=O)C1=CO[C@@H](C)[C@@H]2Cn3ccc4c5ccccc5nc-4c3C[C@H]12 | Plasmodium falciparum | growth, [3H]-hypoxanthine uptake | Dd2 | 96 h | – | IC50 | 275 ± 129 nM
COc1ccccc1-c1n[nH]c2nc(N[C@H]3CC[C@H](NS(=O)(=O)CC(C)C)CC3)ncc12 | – | bead binding, competition bead pull-down, item: LINJ.19.1510 | Leishmania donovani extract | 10 µM | baseline: vehicle | relative abundance | 0.65
CC(=O)CCC1C(=O)NC(C(C)C)C(=O)NC(Cc2cc(O)cc(F)c2)C(=O)N2CCCC(N2)C(=O)OC(C(C)=CC=CC(=O)N2CCCCO2)CC=CC=CC(O)C(C)C1O (stereo not shown) | Hepatitis C virus | viral replication | Huh7, Con1 replicon | 40% fetal bovine serum | – | EC50 | 14 ± 2 nM
Cc1cc(C(=O)Nc2nc3cccc(C)c3n2[C@H]2CCCCN(C(=O)/C=C/CN(C)C)C2)ccn1 | Trypanosoma brucei | cell growth, Alamar Blue | 2T1 overexpressing Tb927.9.14430 | – | baseline: parental 2T1 | EC50 fold shift | 0.65 fold and 0.97 fold
CC(C)(C)C(=O)OCOP(=O)(OCOC(=O)C(C)(C)C)C1CCCN(O)C1=O (stereo not shown) | UACC-62 | – | – | – | – | log GI50 | -6.5 log M
CN(C)c1nc(NCc2ccc(Oc3ccccc3)cc2)c(/N=N/c2ccc(Cl)cc2)c(N(C)C)n1 | Ostrinia furnacalis | leaf dipping | – | 200 mg/L, 96 h | – | mortality | 83.3 ± 5.8%
FC(F)(F)c1cccc(CNc2nc(NC3CCN(Cc4ccccc4)CC3)c3nc[nH]c3n2)c1 | Cryptococcus neoformans | RNA-seq, item: CNAG_04335 | – | 48 µg/mL, 3 h | baseline: untreated | mRNA fold change | 1.25
CC[C@H](C)[C@H](NC(=O)[C@H](CCCCN)NC(=O)[C@H](CCCCN)NC(=O)[C@H](Cc1ccccc1)NC(=O)[C@H](Cc1ccccc1)NC(=O)[C@H](CCCCN)NC(=O)[C@H](CCCCN)NC(=O)[C@H](Cc1ccccc1)NC(=O)[C@H](CCCNC(=N)N)NC(=O)[C@@H](N)CCCCN)C(=O)N[C@@H](CCCCN)C(=O)N[C@@H](CCCCN)C(=O)N[C@@H](CO)C(=O)N[C@H](C(=O)N[C@@H](CCCCN)C(=O)N[C@@H](CCCCN)C(=O)N[C@@H](CCCNC(=N)N)C(=O)N[C@H](C(=O)N[C@@H](CCCCN)C(=O)N[C@@H](CCCCN)C(=O)N[C@@H](CC(C)C)C(=O)N[C@@H](Cc1ccccc1)C(=O)N[C@@H](CCCCN)C(=O)N[C@@H](CCCCN)C(=O)N1CCC[C@H]1C(=O)N[C@@H](CCCNC(=N)N)C(=O)N[C@H](C(=O)N[C@H](C(=O)N1CCC[C@H]1C(=O)N[C@H](C(=O)N[C@@H](CO)C(=O)N[C@H](C(=O)N1CCC[C@H]1C(=O)N[C@@H](Cc1ccccc1)C(=O)O)[C@@H](C)CC)[C@@H](C)CC)[C@@H](C)CC)C(C)C)C(C)C)C(C)C | Streptococcus pneumoniae | – | ATCC 49619 | – | – | MBC | 64 µg/mL
CC[C@H](C)[C@@H]1NC(=O)[C@H](CO)NC(=O)[C@H](CCCCN)NC(=O)[C@@H]2CSSC[C@@H](C(=O)N[C@@H](Cc3ccc(O)cc3)C(N)=O)NC(=O)[C@H](CCCCN)NC(=O)[C@@H]3CSSC[C@H](NC(=O)[C@H](CCCNC(=N)N)NC(=O)[C@H](CC(C)C)NC(=O)[C@H](CC(=O)O)NC(=O)[C@H](CC(=O)O)NC(=O)[C@H](CCC(=O)O)NC(=O)[C@H](CC(N)=O)NC(=O)[C@H](Cc4c[nH]c5ccccc45)NC(=O)[C@@H]4CCCN4C(=O)CNC(=O)[C@H](CC(N)=O)NC(=O)[C@@H](NC(=O)CNC(=O)[C@H](Cc4ccccc4)NC(=O)CN)CSSC[C@H](NC(=O)[C@H](Cc4ccc(O)cc4)NC(=O)CNC(=O)CNC(=O)[C@H](CCCCN)NC(=O)[C@H](Cc4ccc(O)cc4)NC(=O)CNC(=O)[C@H](CCCCN)NC1=O)C(=O)N[C@@H](C)C(=O)N[C@@H](CCCCN)C(=O)NCC(=O)NCC(=O)N[C@@H](Cc1ccccc1)C(=O)N[C@@H](C(C)C)C(=O)N3)C(=O)N[C@@H](Cc1c[nH]cn1)C(=O)N[C@@H](CC(N)=O)C(=O)N[C@@H](Cc1c[nH]cn1)C(=O)N2 | Streptococcus pneumoniae | – | BS-441 | 24 h, 37 °C, 99.9% killing | – | MBC | 0.06 µM
O=C1NC2(CC2)COc2ncc(F)cc2[C@H]2COCCN2c2ccn3ncc1c3n2 | – | – | Sprague-Dawley rat, male, serum | oral, 10 mg/kg/day, end of recovery, 4-week subacute toxicity | – | serum sodium | 145 ± 2 mmol/L
Cc1cc(Oc2nc(N3CC[C@@H](c4ccncc4)C3)ncc2F)[nH]n1 | WSU-NHL | cell proliferation | – | – | – | IC50 | 21400 nM
COc1ccccc1-c1n[nH]c2nc(NC3CCN(C(=O)Cc4ccc(F)cc4F)CC3)ncc12 | – | bead binding, competition bead pull-down, item: LINJ.36.1320 | Leishmania donovani extract | 10 µM | baseline: vehicle | relative abundance | 1.11
N=C(N)NCCC[C@H](NC(=O)[C@H](CCCNC(=N)N)NC(=O)[C@H](CCCNC(=N)N)NC(=O)[C@H](CCC(N)=O)NC(=O)[C@H](CCCNC(=N)N)NC(=O)[C@H](CCCNC(=N)N)NC(=O)[C@H](CCCCN)NC(=O)[C@H](CCCCN)NC(=O)[C@H](CCCNC(=N)N)NC(=O)CNC(=O)[C@H](Cc1ccc(O)cc1)NC(=O)[C@H](Cc1ccccc1)NC(=O)[C@H](Cc1ccccc1)NC(=O)[C@H](Cc1ccccc1)NC(=O)Cc1ccc2ccccc2c1)C(=O)O | Gram-positive bacteria | – | – | seven strains | – | geometric mean MIC | 4.42 µM
CCCN1C(=O)C(CCC)(C(=O)OCC)Oc2cc(F)ccc21 (stereo not shown) | Setaria viridis | fresh weight, greenhouse postemergence | – | postemergence, 150 g ai/ha, 21 days | – | inhibition | 32.2 ± 0.75%

Excerpt of the above:
SMILES | target or system | assay | test system | setting | how to read | endpoint | result
CC[C@H](C)[C@H](NC(=O)[C@H](CCCCN)NC(=O)[C@H](CCCCN)NC(=O)[C@H](Cc1ccccc1)NC(=O)[C@H](Cc1ccccc1)NC(=O)[C@H](CCCCN)NC(=O)[C@H](CCCCN)NC(=O)[C@H](Cc1ccccc1)NC(=O)[C@H](CCCNC(=N)N)NC(=O)[C@@H](N)CCCCN)C(=O)N[C@@H](CCCCN)C(=O)N[C@@H](CCCCN)C(=O)N[C@@H](CO)C(=O)N[C@H](C(=O)N[C@@H](CCCCN)C(=O)N[C@@H](CCCCN)C(=O)N[C@@H](CCCNC(=N)N)C(=O)N[C@H](C(=O)N[C@@H](CCCCN)C(=O)N[C@@H](CCCCN)C(=O)N[C@@H](CC(C)C)C(=O)N[C@@H](Cc1ccccc1)C(=O)N[C@@H](CCCCN)C(=O)N[C@@H](CCCCN)C(=O)N1CCC[C@H]1C(=O)N[C@@H](CCCNC(=N)N)C(=O)N[C@H](C(=O)N[C@H](C(=O)N1CCC[C@H]1C(=O)N[C@H](C(=O)N[C@@H](CO)C(=O)N[C@H](C(=O)N1CCC[C@H]1C(=O)N[C@@H](Cc1ccccc1)C(=O)O)[C@@H](C)CC)[C@@H](C)CC)[C@@H](C)CC)C(C)C)C(C)C)C(C)C | Streptococcus pneumoniae | – | ATCC 49619 | – | – | MBC | 64 µg/mL
